Results pooled from the literature.
Parts stem from different laboratories: compare values within a part only. “And” joins repeats or separate records; there may be more than shown.
UniProt Q9SV15, sequence (228-325, looked up): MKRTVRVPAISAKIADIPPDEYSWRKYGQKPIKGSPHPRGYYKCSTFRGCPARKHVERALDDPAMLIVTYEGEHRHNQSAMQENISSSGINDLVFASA
UniProt Q8S8P5, sequence (346-449, looked up): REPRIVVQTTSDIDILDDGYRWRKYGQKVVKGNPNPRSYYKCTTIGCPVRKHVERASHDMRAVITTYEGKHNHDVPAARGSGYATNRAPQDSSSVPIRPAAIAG
UniProt Q8S8P5, sequence (169-264, looked up): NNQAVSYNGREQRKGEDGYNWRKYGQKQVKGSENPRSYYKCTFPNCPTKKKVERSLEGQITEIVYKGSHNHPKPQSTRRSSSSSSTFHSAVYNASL

Set 1
Target: Hepatocyte nuclear factor 3-alpha (Foxa1, Mus musculus, UniProt P35582, residues 1-468, full length assumed)
Technique: EMSA with sequencing
Form: double-stranded DNA, one strand shown
Sample: in vitro
Concentration: 10 and 20 nM
Notes: whole designed probe, mean of two concentrations, ends assumed
Relative to: negative control set to 0
Direction: higher = stronger binding
Constant ends, left off below: GTGAGCGGTGCCCATTGATGGGGAAC … TTTCACTGGGATCGTGGGGAC
Target sequence (chain): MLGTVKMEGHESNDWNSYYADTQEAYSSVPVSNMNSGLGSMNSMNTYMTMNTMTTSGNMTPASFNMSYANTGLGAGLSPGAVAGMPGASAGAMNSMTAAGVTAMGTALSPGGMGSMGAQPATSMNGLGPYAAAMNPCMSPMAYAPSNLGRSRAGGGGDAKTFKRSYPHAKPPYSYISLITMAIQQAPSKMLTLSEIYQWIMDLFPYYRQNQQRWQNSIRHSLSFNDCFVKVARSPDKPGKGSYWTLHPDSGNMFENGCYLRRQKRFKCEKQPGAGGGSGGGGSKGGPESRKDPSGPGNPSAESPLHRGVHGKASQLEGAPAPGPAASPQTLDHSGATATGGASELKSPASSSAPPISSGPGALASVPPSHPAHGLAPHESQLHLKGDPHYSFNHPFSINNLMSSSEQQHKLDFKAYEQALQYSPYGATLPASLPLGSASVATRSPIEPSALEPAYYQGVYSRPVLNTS
| Oligonucleotide | normalised bound fraction [ratio] |
| --- | --- |
| ATCTTCCCCCTCTTCCTTGCCCCACCAGCTCACCTTCCCGGGTTATTTGCACAAAGGAAAATAAATAAAGCCGGCATTCGTTAACGCAGTTCACGCGCATACTGCTGTTTGCTCTGCATGAATCATGGTCCTTACGCGAGGCGTGGCTCCGGGAGAGCAAAGCACCGTGTCAGGCGCATGATCCGGGCTCGCC | 0.38 |
| TCAACTGACTCACCCAGAGCAACTTCTAGTCCTGCAAGCTATGTTCATGGAGTGTCCTATGCAGGTGCATCCTTTTTTATCTTTTATACTGCATGTTTACTCTGTGTATTTTCTGTGTTTAGACTCATAAATACTTAACATTTTGTTACAATTTCCTACAGTGTTCAGTACAACAACATGTTGTATGGTTTAT | 0.303 |
| ACTGAACTTCACTCCTGCTAGGGAGCTCTGGGAGCCAGTGTAGAATTGCATCTCCAAGCTGTCCCACCTGAGAGGTGAGGAAGCTCAAGTACTAAATTACTGATTCAGTATTGTGCTGGCAACGGGTTCTCCAGTAGGAGGTCAAGGGAGCCCTGATTTGTAGCATTTGCCAATGACCATGGTGTAAATACTC | -0.0326 |
| TTTTTGTCGTGGGACAGTTGTAAACCTTTTTTGGCTTTTCTTTTACCAATAATTCTCATACTGCATGTGCTAAATGTCACAATCCCCCCCTTTCTGTTTACTTTGAAAGTGTGAAAATTTTTATTCTAGTTTTTGTTTAAAATCAGAAAAAAAAAATCTCTTAAAACTATAGCAACGCTCTTCATGTCAGTAA | 0.289 |
| GTGGAGTTAATGCAGATTGACGCTGAAGTTCATGTGGGGGCACAGACGTCTGATGGTGCCCAAGAAACCCAGGAGACAAAACTGATGCTTCCCAGAGGACACTGCAGCATCCTCTAAAGCCGCTGTAATTAAGGTATGTGACACATGACCAGGAAGCAGACAGATGGACAAAAATGGAATATCTGGAAATAGA | 0.00489 |

Set 2
Target: Replicase polyprotein 1ab, nsp13 helicase (rep, Severe acute respiratory syndrome coronavirus 2, UniProt P0DTD1)
Action: inhibitor
Concentration: 20 µM
| Compound | inhibition |
| --- | --- |
| CNS(=O)(=O)CCc1ccc2[nH]cc(C3CCN(C)CC3)c2c1 | 0.51% |
| C[C@H](O)C(=O)Nc1c(I)c(C(=O)NC(CO)CO)c(I)c(C(=O)NC(CO)CO)c1I | 9.12% |
| O=C(O)c1ccccc1C(=O)Nc1ccc(-c2ccccc2)cc1 | -2.04% |
| C[C@@]12N[C@@H](Cc3ccccc31)c1ccccc12 | 2.71% |
| CCC(=O)NO | 3.46% |
| Cc1ccc2c(c1)[C@H]1CN(C)CC[C@H]1N2 | -1.22% |
| CC(C)[N+](C)(CCOC(=O)C1c2ccccc2Oc2ccccc21)C(C)C | 3.83% |
| CC1(C(=O)O)NCCc2cc(O)c(O)cc21 (stereo not drawn) | 8.76% |
| CS(=O)(=O)Nc1ccc(-c2coc3cc(OCc4cccc(C(=O)O)c4)ccc3c2=O)cc1 | 6.5% |
| Cc1ccc(N2CCN(CCC3NC(=O)c4ccccc43)CC2)cc1C (stereo not drawn) | 2.92% |
| C=C[C@@]1(C)CC(=O)[C@]2(O)[C@@]3(C)[C@@H](O)CCC(C)(C)[C@@H]3[C@H](O)[C@H](OC(C)=O)[C@@]2(C)O1 | 6.94% and -0.16% |
| CN1CCN(C2CCN(C(=O)Nc3cc(Oc4ccc(NC(=O)C5(C(=O)Nc6ccc(F)cc6)CC5)c(F)c4)ccn3)CC2)CC1 | 7.85% |
| O=C1CC[C@@]2(O)[C@H]3Cc4ccc(O)c5c4[C@@]2(CCN3CC2CC2)[C@H]1O5 | 1.32% |
| CC[C@@H](CO)NC(=O)[C@@H]1C=C2c3cccc4c3c(cn4C)C[C@H]2N(C)C1 | 29.2% |
| CCNC(=O)C#Cc1ccc2c(C(=Nc3ccc(CN(C)C)cc3)c3ccccc3)c(O)[nH]c2c1 | 7.1% |
| C=CC(=O)Nc1cccc(Nc2nc(Nc3ccc(N4CCN(C(C)=O)CC4)cc3OC)ncc2C(F)(F)F)c1 | 10.3% |
| O=P(O)(O)CP(=O)(O)O | -5.2% |
| COCC1(CO)C(=O)C2CCN1CC2 (stereo not drawn) | -1.11% |
| COC(=O)N[C@H](C(=O)N1CC2(CC2)C[C@H]1c1nc(-c2ccc3c(c2)C(F)(F)c2cc(-c4ccc5[nH]c([C@@H]6[C@H]7CC[C@H](C7)N6C(=O)[C@@H](NC(=O)OC)C(C)C)nc5c4)ccc2-3)c[nH]1)C(C)C | -1.57% |
| COc1ccc(CCN(C)CCCOc2ccc(S(=O)(=O)c3c(C(C)C)c4ccccc4n3C)cc2)cc1OC | 3.42% |
| O=C1CC2(CCCC2)CC(=O)N1CCNCC1COc2ccccc2O1 (stereo not drawn) | 7.48% |
| Cc1ccc(-c2nc3ccc(C)cn3c2CC(=O)N(C)C)cc1 | -5.87% |

Set 3
Target: PABPC1L2, full length, GST fusion (mouse, UniProt A0ABA7IW68)
Technique: RNAcompete
Form: RNA
Sample: in vitro
Concentration: 20 nM
Notes: 7-mer, probes averaged, single round
Relative to: mean of 7-mers
Direction: higher = stronger binding
Target sequence (chain): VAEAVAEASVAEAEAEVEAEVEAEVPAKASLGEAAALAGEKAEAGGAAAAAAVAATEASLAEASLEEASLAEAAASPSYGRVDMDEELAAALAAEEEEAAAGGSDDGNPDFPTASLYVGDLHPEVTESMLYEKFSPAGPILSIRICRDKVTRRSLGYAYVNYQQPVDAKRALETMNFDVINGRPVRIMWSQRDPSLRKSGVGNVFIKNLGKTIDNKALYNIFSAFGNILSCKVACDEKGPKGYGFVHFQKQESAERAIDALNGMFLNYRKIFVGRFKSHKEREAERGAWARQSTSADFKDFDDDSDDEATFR
| Oligonucleotide | 7-mer Z-score |
| --- | --- |
| UUCACAC | -0.202 |
| ACACAUU | 0.0805 |
| CACGCGG | -0.0409 |
| AAUACGA | 0.51 |
| UGAGACA | -0.0718 |
| CAAUACU | -0.137 |
| GUGAUAG | -0.021 |
| AUGAAAG | 0.249 |

Set 4
Target: Sal-like protein 4, full length isoform A (SALL4, Homo sapiens, UniProt Q9UJQ4, residues 1-1053)
UniProt Q9UJQ4, sequence (whole entry, looked up): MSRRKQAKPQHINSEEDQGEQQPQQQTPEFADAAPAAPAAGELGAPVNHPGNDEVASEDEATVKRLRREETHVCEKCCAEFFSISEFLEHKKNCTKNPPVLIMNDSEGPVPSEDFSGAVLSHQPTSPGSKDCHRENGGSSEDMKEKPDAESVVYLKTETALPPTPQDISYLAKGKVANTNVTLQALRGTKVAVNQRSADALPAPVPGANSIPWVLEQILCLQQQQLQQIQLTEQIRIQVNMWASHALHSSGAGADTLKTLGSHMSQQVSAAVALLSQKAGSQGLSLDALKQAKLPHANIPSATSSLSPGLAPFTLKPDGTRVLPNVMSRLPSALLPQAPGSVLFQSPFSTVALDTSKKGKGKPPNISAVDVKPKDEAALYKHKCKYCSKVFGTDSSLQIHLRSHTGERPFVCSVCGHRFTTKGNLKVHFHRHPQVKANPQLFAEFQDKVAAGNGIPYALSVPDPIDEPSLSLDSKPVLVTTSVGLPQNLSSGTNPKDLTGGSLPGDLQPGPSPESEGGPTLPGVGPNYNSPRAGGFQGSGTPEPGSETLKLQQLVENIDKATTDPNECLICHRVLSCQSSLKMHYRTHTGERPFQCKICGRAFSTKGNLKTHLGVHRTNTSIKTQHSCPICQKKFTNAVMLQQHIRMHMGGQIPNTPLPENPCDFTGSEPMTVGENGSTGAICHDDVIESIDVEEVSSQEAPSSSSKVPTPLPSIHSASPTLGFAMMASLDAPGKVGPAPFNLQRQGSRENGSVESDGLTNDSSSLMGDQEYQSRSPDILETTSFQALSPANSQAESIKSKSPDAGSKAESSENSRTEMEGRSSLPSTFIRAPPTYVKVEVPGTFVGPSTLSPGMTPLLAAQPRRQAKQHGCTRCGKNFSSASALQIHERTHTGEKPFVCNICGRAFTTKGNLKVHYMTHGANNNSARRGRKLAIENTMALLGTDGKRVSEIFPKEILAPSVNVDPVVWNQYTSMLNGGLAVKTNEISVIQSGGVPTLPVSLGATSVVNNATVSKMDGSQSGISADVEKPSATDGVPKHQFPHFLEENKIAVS
Technique: universal PBM
Form: double-stranded DNA, one strand shown
Sample: in vitro
Concentration: 600 nM
Notes: 8-mer, flanks averaged, mean of replicates
Direction: higher = stronger binding
| Oligonucleotide | E-score |
| --- | --- |
| GCTTGACA | -0.0174 |
| CACGCGCA | -0.246 |
| AACCAAAC | -0.146 |
| CCGAAGAG | -0.0853 |
| CAGTAGCG | -0.184 |
| CTGTCCGC | -0.245 |
| AAATGGAT | 0.189 |
| CAACGCAG | -0.197 |

Set 5
Target: Replicase polyprotein 1ab, main protease (rep, Severe acute respiratory syndrome coronavirus 2, UniProt P0DTD1)
Read-out: enzyme activity
Action: inhibitor
Concentration: 20 µM
Notes: hit confirmation, with DTT
| Compound | inhibition [%] |
| --- | --- |
| CCc1ccc(/C=C/C(=O)Nc2ccc(C(C)=O)cc2)o1 | -30.5 |
| O=C1OC2(c3cc(I)c(O)c(I)c3Oc3c2cc(I)c(O)c3I)c2c(Cl)c(Cl)c(Cl)c(Cl)c21 | 92.1 |
| O=C1C(=Cc2cccnc2)C(=O)c2ccccc21 | 60.4 |
| c1ccc2sc(SNC3CCCCC3)nc2c1 | -16.4 |

Mixed results
| Molecule | tested on | assay | system | setting | scale | endpoint | result |
| --- | --- | --- | --- | --- | --- | --- | --- |
| AAAAAATTCCGCGTGTATGTGTACGTAAAA | Probable WRKY transcription factor 33, N-terminal DNA-binding domain (WRKY33, Arabidopsis thaliana, UniProt Q8S8P5, residues 169-264) | DNA-protein interaction ELISA | double-stranded DNA, one strand shown, in vitro, bacterial lysate | not given, whole dsDNA probe, crude lysate protein | relative to: highest signal in screen, higher = stronger binding | relative absorbance | 25.2 % of maximum |
| O=C1[C@H](CC[C@H](O)c2ccc(F)cc2)[C@@H](c2ccc(O)cc2)N1c1ccc(F)cc1 | HEK-293T/ACE2 |  |  | concentration not given, 16 (unit not given) | relative to: vehicle | viability | 102% |
| AAAAAACCCTACATCGCATATAAGAGAAAA | Probable WRKY transcription factor 11, DNA-binding domain (WRKY11, Arabidopsis thaliana, UniProt Q9SV15, residues 228-325) | DNA-protein interaction ELISA | double-stranded DNA, one strand shown, in vitro, bacterial lysate | not given, whole dsDNA probe, crude lysate protein | relative to: highest signal in screen, higher = stronger binding | relative absorbance | 19.9 % of maximum |
| AAAAAACAGGCCGATTCCGATCCCGGAAAA | Probable WRKY transcription factor 33, C-terminal DNA-binding domain (WRKY33, Arabidopsis thaliana, UniProt Q8S8P5, residues 346-449) | DNA-protein interaction ELISA | double-stranded DNA, one strand shown, in vitro, bacterial lysate | not given, whole dsDNA probe, crude lysate protein | relative to: highest signal in screen, higher = stronger binding | relative absorbance | 32.1 % of maximum |
